Published values gathered from unrelated publications.
Parts stem from different laboratories: compare values within a part only.

Series 1
Target: human cyclin B2
Effect on: peptide binding
Method: yeast competitive growth sequencing
Molecule type: peptide
Organism: Saccharomyces cerevisiae
Strain: cyclin B2-Cln2 fusion
Concentration: concentration not given
Notes: peptide tiling library
Reading: direction not given
`PQWPCGKHKRVLIFAS` — result for “binding enrichment score”: -0.185.
Under “binding enrichment score”, `IPDRSTKPVVFSPT` is recorded as -0.856.
For `PAKRRLELGE`, “binding enrichment score” read 0.572.
For `KPHVSDEEEEEPPFYH`, “binding enrichment score” read 0.388.
`LRRQLSFSED`: “binding enrichment score” 2.05.
For `EPRNLLSLFEDTLDPT`, “binding enrichment score” read 1.58.
Under “binding enrichment score”, `IVLICAKRSLCAAFSV` is recorded as -0.221.
`GLPDFVFQQQPVESEA`: “binding enrichment score” -0.313.
`SSEVARHLLFQSHM` — result for “binding enrichment score”: 0.789.
`SDSTVTKLDFDLEP`: “binding enrichment score” 0.611.
Under “binding enrichment score”, `KPITLDTTDFQESFVT` is recorded as 1.19.
`VLPGGVPSPGASLTSM`: “binding enrichment score” -0.0997.
`IQKKLRFEDTLEFVGF`: “binding enrichment score” 0.972.
Under “binding enrichment score”, `DVSERGYVILPNDYFE` is recorded as 0.0915.
`SAVPLILPQAPSGPSY` — result for “binding enrichment score”: 0.0537.
`TRRRLFVENDSP` — result for “binding enrichment score”: -0.367.

Series 2
Target: RNA binding protein fox-1 homolog 2, RRM domain, GST-SBP tag (RBFOX2, Homo sapiens, UniProt O43251-10, residues 100-194)
Method: RNA Bind-n-Seq
Molecule type: RNA
Matrix: in vitro
Concentration: 365 nM
Notes: natural RNA segment, single round, ends assumed
Relative to: no-protein control
Reading: higher = stronger binding
Target sequence (chain): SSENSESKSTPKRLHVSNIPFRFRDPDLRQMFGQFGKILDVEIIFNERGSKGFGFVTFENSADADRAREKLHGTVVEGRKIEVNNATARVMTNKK
`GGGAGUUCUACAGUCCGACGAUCCUAACCCUCUGCACAGCCCUUCUGGGUGGUCCUCACCAGGUCUCUGAGCUGGGUGGGAGGCCAUCCUGGCGACCACUGCCCAUUCCAUUCACCCCUCACUGUACCUGCCCUGGAAUUCUCGGGUGCCAA`: “RBNS enrichment (R)” 0.553.
`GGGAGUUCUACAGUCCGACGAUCUUGCUUUUGGGGAGAGUGGGGAGAAGACAUUCUAAUAAUCAGUUUGUGAAAUAGCUUCUGUUGGAAACCUUUUGAGGGGAAUAAGGAAUGGUCAUCUAAAAUGAGAGAUUUGGAAUUCUCGGGUGCCAA`: “RBNS enrichment (R)” 0.885.
For `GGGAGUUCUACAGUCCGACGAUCCCUGUGAAGUGACAGGUGUGGACCCUGAGGGUGCGGUGGUGAGCACACUGUCUCCUGCUGGCAUUCACCCCACUCAUGCUGGAAAGGAAGAUCCAGAUCGUACAAAAAUUUGGAAUUCUCGGGUGCCAA`, “RBNS enrichment (R)” read 0.445.
`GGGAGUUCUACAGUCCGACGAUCACCCCACCUCACCCAGAGCAAACCGUAGGACUGCUCCUAGAAGCAGCUCUGUUGACUUCUCUUGGAACACACCUGAACGCUUUCCUCAUUUCUAACCUGUGCCACCUCUUUGGAAUUCUCGGGUGCCAA` — result for “RBNS enrichment (R)”: 0.581.
`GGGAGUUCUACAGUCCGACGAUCUGGGCUGCUACUGUUGGCCACCCUGUGUCUAGUGAUGCUCUCUGUGCUCACCUCCUAGGCCAUGGAGCCUGAGGGGGCCUGCACCAGGUUUGCUGAAACUGACAGAGCCUUGGAAUUCUCGGGUGCCAA`: “RBNS enrichment (R)” 0.191.
`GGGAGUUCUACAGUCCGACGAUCCCAAUUAGAAAUAAUUGUAAUGCCUAAAAAACUUUUUCACAAAAAUGAAUCUUUGAAAUUUUUUAUUGUUGAAAAAGUGUUAAGUAACAUAAAUCUAAUCAGAUAUCUUAUGGAAUUCUCGGGUGCCAA` — result for “RBNS enrichment (R)”: 0.65.
`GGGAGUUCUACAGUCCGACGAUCAAAACACGUUGCCUGUUUUCAGUUAACACUGGUAAUGCCAUUUUAAUAUAUGGCUUUUUCAAAUCAGUUCAGUGAAAAUAGUACAGAUUUAGGUUUACAUAACUACUCUGUGGAAUUCUCGGGUGCCAA` — result for “RBNS enrichment (R)”: 0.256.
For `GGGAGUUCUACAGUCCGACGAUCUUUGGUAAUAUGUUAGCUCUCAUUGGACAAGAUAGACGCCAUAUAGGAGGCUGAGGGUUAGGACACAGUAAAAUGAAUUUAACAGUUUCACUGCUUUCUCAAGUAGUUUUUGGAAUUCUCGGGUGCCAA`, “RBNS enrichment (R)” read 0.742.

Series 3
Target: Histone acetyltransferase KAT6A, both winged helices, GST fusion (KAT6A, Homo sapiens, UniProt Q92794, residues 1-181)
Method: protein binding microarray
Molecule type: double-stranded DNA, one strand shown
Matrix: in vitro
Concentration: not given
Notes: 8-mer, flanks averaged, mean of 2 arrays, mostly near background
Relative to: not given
Reading: higher = stronger binding
Residues (chain): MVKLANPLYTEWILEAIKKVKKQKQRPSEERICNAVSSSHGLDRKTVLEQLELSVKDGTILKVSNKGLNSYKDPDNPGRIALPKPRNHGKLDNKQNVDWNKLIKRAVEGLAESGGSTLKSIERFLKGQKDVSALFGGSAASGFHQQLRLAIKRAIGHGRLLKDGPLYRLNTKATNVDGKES
`ACTCCGGG` has an E-score of 0.0739.
The E-score of `AGTGAAGA` is reported as -0.0531.
`CGGATTAG` gave an E-score of 0.193.
For `AAAGGTTA`, the E-score was -0.0679.
For `AGGCTCGG`, the E-score was -5e-06.
The E-score of `CGACACCA` is reported as 0.0429.
The E-score of `ATCGCCCA` is reported as -0.181.
With `ATCGTATA` the E-score was -0.0579.
The E-score of `GAAGTCCA` is reported as -0.102.
The E-score of `CAAGACAA` is reported as -0.0575.
`CAAATGTC` has an E-score of -0.0584.
`CGCGGAGA` has an E-score of 0.296.
The E-score of `ACACTCTA` is reported as -0.0504.
`GCCCCACA` gave an E-score of -0.232.
`AAAGGGAA` has an E-score of -0.0758.
For `CATAAAAG`, the E-score was -0.0907.
The E-score of `CCGAATGA` is reported as 0.162.

Series 4
Target: Ras GTPase-activating protein-binding protein 1, full length (G3BP1, Homo sapiens, UniProt Q13283)
UniProt Q13283, sequence (whole entry, looked up): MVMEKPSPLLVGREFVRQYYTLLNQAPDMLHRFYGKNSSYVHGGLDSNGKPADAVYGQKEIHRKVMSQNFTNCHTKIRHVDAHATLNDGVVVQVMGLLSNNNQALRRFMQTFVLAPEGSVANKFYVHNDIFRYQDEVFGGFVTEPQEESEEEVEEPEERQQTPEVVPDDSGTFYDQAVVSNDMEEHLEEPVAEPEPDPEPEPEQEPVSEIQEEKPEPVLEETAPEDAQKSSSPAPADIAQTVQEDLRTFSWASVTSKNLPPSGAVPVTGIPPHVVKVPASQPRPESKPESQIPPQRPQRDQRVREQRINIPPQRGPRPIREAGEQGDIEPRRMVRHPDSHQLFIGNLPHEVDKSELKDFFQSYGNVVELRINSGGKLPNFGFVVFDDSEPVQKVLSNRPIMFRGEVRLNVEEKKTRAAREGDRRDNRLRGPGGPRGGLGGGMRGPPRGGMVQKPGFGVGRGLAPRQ
Method: RNA Bind-n-Seq
Molecule type: RNA
Matrix: in vitro
Concentration: 200 nM
Notes: whole 134-nt RNA, ends assumed
Together with: 150 mM KCl
Relative to: input library
Reading: higher = stronger binding
For `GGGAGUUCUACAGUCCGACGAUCCUGUGCUACACAUCGUAUGUACCGAAUCGGGGUUUUUGGGGUUUUUGGGGUUUUUUUGGGGAAAGUAUUAUGUUACGCCGUUCGGAUCUGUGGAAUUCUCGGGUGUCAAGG`, the log2 enrichment was -0.359.
With `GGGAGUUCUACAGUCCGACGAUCGCAGGAAGUAAAAACAAAUGGAAAUGCUUCGGAUAGUGGCAGGGGUGGGGGUUGCUAAGGAAAGGUUGGGAUGGGAGUGGGUAAAGAGUUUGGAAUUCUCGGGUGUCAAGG` the log2 enrichment was 0.682.
With `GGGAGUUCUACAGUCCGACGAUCCCUGUGCUACACAUCGUAUGUACCGAAUCGGGAAAAAAAGGAAAAAAAGGGAAAAAAAGGGAAAGUAUUAUGUUACGCCGUUCGGAUCUGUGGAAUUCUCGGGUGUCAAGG` the log2 enrichment was -0.927.
With `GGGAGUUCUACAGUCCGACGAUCCUCAAGUCCUGUGCUACACAUCGUAUGUACCGAAUCGGAGGAAAAAAAGGAGGAAAGUAUUAUGUUACGCCGUUCGGAUCUGCACUUCCAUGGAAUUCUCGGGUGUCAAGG` the log2 enrichment was -0.388.
`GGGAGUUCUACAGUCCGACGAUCCAAGUCCUGUGCUACACAUCGUAUGUACCGAAUCGGAAAAAGGAAAGGUUUUUGGAAAGUAUUAUGUUACGCCGUUCGGAUCUGCACUUCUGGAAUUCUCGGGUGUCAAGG` has a log2 enrichment of -1.31.
With `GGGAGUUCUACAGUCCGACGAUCCCUGUGCUACACAUCGUAUGUACCGAAUCGGAAAAAAAGGGAAAAAAAGGGGAAAAAAAGGAAAGUAUUAUGUUACGCCGUUCGGAUCUGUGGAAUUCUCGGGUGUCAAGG` the log2 enrichment was -0.801.
For `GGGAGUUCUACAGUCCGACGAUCAAGUCCUGUGCUACACAUCGUAUGUACCGAAUCGGGGUUUGGGGUGGGGAAAGGGGAAAGUAUUAUGUUACGCCGUUCGGAUCUGCACUUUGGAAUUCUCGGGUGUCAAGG`, the log2 enrichment was 0.775.
With `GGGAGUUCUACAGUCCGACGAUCCUCAAGUCCUGUGCUACACAUCGUAUGUACCGAAUCGGAGGGGAGGGGAGGGGAAAGUAUUAUGUUACGCCGUUCGGAUCUGCACUUCCAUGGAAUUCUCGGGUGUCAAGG` the log2 enrichment was 1.21.
The log2 enrichment of `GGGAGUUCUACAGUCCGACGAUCACCAUGCAGGUGGGCAUCUUUGGGAAGUGGGGCAAGGGGGGGAUAGGGAGGGGGGUAACACUUUGGGAACAGGUGGUCCCAGGCCGUUUCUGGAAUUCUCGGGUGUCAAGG` is reported as 1.31.

Series 5
Target: Sal-like protein 4, full length isoform A (SALL4, Homo sapiens, UniProt Q9UJQ4, residues 1-1053)
UniProt Q9UJQ4, sequence (whole entry, looked up): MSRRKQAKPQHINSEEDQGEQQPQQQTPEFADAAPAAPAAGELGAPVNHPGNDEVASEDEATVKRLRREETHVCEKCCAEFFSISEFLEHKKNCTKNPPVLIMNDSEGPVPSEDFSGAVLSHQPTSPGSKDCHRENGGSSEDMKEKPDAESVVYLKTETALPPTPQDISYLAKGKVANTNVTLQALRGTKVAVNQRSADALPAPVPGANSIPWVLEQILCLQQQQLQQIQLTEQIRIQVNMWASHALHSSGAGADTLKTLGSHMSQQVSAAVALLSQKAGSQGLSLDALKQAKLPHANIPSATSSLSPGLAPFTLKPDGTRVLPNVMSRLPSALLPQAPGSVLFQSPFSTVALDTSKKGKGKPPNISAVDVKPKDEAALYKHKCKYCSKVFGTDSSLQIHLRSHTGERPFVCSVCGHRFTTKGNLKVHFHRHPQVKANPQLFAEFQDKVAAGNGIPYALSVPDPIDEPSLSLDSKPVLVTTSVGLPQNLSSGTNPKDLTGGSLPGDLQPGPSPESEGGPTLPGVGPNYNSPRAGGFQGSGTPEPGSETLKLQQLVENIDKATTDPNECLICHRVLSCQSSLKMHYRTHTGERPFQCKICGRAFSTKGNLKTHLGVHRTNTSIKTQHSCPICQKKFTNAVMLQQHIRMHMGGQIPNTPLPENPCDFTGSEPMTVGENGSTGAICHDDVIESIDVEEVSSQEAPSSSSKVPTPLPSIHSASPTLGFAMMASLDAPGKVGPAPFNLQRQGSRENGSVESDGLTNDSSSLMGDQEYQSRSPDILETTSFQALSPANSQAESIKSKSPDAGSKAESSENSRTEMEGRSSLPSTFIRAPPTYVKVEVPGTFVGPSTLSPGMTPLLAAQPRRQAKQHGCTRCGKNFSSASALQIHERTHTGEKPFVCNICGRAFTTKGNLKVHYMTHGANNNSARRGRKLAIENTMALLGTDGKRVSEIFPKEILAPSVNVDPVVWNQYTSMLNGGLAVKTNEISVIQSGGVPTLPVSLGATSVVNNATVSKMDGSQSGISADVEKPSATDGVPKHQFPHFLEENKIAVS
Method: universal PBM
Molecule type: double-stranded DNA, one strand shown
Matrix: in vitro
Concentration: 600 nM
Notes: 8-mer, flanks averaged, mean of replicates
Reading: higher = stronger binding
`CGCAGCTA` has an E-score of -0.284.
`AGTGTCAG` gave an E-score of -0.0744.
The E-score of `AGGCGTTA` is reported as -0.0015.
With `AAGGCTCT` the E-score was -0.153.
`CCTTCAAA` has an E-score of 0.148.
With `CTATAGTA` the E-score was 0.202.
`AATGAGTC` has an E-score of 0.133.
With `AAAATGCG` the E-score was 0.0875.
With `CTCAATCA` the E-score was 0.0733.
`GTCGCCAC` gave an E-score of -0.254.
`AGCACCCT` gave an E-score of -0.293.
With `AGTTCTGA` the E-score was 0.121.
`CTTAACCC` has an E-score of -0.171.
`CCAGTGCC` gave an E-score of -0.263.
With `AACGGGTC` the E-score was -0.276.
`TACTCTGA` gave an E-score of 0.0982.
With `AACGGAAA` the E-score was 0.0614.
With `ACGAATAA` the E-score was 0.26.
With `ATGAAAAA` the E-score was 0.305.
`GACGCGTC` has an E-score of -0.323.
With `CCCCCCAG` the E-score was -0.408.
The E-score of `CTCGACTC` is reported as -0.17.
`ACCATTGG` has an E-score of -0.156.
For `CACTTTGG`, the E-score was -0.0367.

Excerpt of the above (series 2):
`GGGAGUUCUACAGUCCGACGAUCUGGGCUGCUACUGUUGGCCACCCUGUGUCUAGUGAUGCUCUCUGUGCUCACCUCCUAGGCCAUGGAGCCUGAGGGGGCCUGCACCAGGUUUGCUGAAACUGACAGAGCCUUGGAAUUCUCGGGUGCCAA`: “RBNS enrichment (R)” 0.191.
For `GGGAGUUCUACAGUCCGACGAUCUUUGGUAAUAUGUUAGCUCUCAUUGGACAAGAUAGACGCCAUAUAGGAGGCUGAGGGUUAGGACACAGUAAAAUGAAUUUAACAGUUUCACUGCUUUCUCAAGUAGUUUUUGGAAUUCUCGGGUGCCAA`, “RBNS enrichment (R)” read 0.742.
`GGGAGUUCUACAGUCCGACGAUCAAAACACGUUGCCUGUUUUCAGUUAACACUGGUAAUGCCAUUUUAAUAUAUGGCUUUUUCAAAUCAGUUCAGUGAAAAUAGUACAGAUUUAGGUUUACAUAACUACUCUGUGGAAUUCUCGGGUGCCAA` — result for “RBNS enrichment (R)”: 0.256.
`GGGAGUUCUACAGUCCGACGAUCCUAACCCUCUGCACAGCCCUUCUGGGUGGUCCUCACCAGGUCUCUGAGCUGGGUGGGAGGCCAUCCUGGCGACCACUGCCCAUUCCAUUCACCCCUCACUGUACCUGCCCUGGAAUUCUCGGGUGCCAA`: “RBNS enrichment (R)” 0.553.
`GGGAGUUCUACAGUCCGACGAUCUUGCUUUUGGGGAGAGUGGGGAGAAGACAUUCUAAUAAUCAGUUUGUGAAAUAGCUUCUGUUGGAAACCUUUUGAGGGGAAUAAGGAAUGGUCAUCUAAAAUGAGAGAUUUGGAAUUCUCGGGUGCCAA`: “RBNS enrichment (R)” 0.885.
`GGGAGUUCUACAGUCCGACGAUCACCCCACCUCACCCAGAGCAAACCGUAGGACUGCUCCUAGAAGCAGCUCUGUUGACUUCUCUUGGAACACACCUGAACGCUUUCCUCAUUUCUAACCUGUGCCACCUCUUUGGAAUUCUCGGGUGCCAA` — result for “RBNS enrichment (R)”: 0.581.
For `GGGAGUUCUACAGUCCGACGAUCCCUGUGAAGUGACAGGUGUGGACCCUGAGGGUGCGGUGGUGAGCACACUGUCUCCUGCUGGCAUUCACCCCACUCAUGCUGGAAAGGAAGAUCCAGAUCGUACAAAAAUUUGGAAUUCUCGGGUGCCAA`, “RBNS enrichment (R)” read 0.445.
